Results from different studies.
Protocols differ between the studies behind these lines. Values joined by “and” are separate records of one study, mostly repeats; a detail may differ. Numbers after ± are the reported error. ≈ marks a conversion by molar mass, not a printed value.

Compound = CC[C@H](C)[C@H](NC(=O)[C@H](Cc1ccccc1)NC(=O)[C@@H](N)C(C)C)C(=O)N[C@@H](CC(N)=O)C(=O)N[C@H](C(=O)N[C@@H](CCCCN)C(=O)N[C@H]1CSSC[C@@H]2NC(=O)[C@H](CCCCN)NC(=O)CNC(=O)[C@H](C)NC(=O)[C@H](C)NC(=O)[C@H](CCCCN)NC(=O)CNC(=O)[C@H](C(C)C)NC(=O)[C@H](C)NC(=O)[C@H](C)NC(=O)[C@H](CCCCN)NC(=O)[C@@H]3CSSC[C@@H](C(=O)N[C@@H](Cc4ccc(O)cc4)C(=O)N4CCC[C@H]4C(=O)O)NC(=O)[C@H](CCCCN)NC(=O)[C@H](CSSC[C@H](NC(=O)[C@H](CCC(=O)O)NC(=O)[C@H](CCCCN)NC(=O)[C@H](CO)NC(=O)CNC(=O)[C@H](CCCNC(=N)N)NC1=O)C(=O)N[C@@H](CC(C)C)C(=O)N1CCC[C@H]1C(=O)N[C@@H](C)C(=O)N3)NC(=O)[C@H](CCCCN)NC(=O)CNC(=O)[C@H](CC(N)=O)NC(=O)[C@H](CCSC)NC2=O)C(C)C; target = Sh (Drosophila melanogaster, UniProt P08510); assay = toxin block destabilisation, blocker; conditions = 360 nM, together with: external K+; measurement = Hill coefficient; result = 1.4
Compound = Cc1ccc(N)cc1C(=O)N[C@H](C)c1cccc2ccccc12; target = Replicase polyprotein 1a, papain-like protease (Severe acute respiratory syndrome coronavirus 2, UniProt P0DTC1); assay = binding; conditions = 10 µM; measurement = thermal shift (ΔTm); result = 5.6 °C and 8 °C and 5.4 °C
Compound = CC(=O)N[C@@H](Cc1cn([C@@H]2O[C@H](CO)[C@H](O)[C@H](O)[C@H]2O)nn1)C(=O)NCC(=O)N[C@@H](C)C(=O)N[C@@H](CCCCN)C(=O)N[C@@H](C)C(=O)N[C@@H](CCCCN)C(=O)N1CCC[C@H]1C(=O)N[C@@H](CCCCN)C(=O)NCC(=O)N[C@@H](C)C(=O)N[C@@H](CCCCN)C(=O)N[C@@H](C)C(=O)N[C@@H](CCCCN)C(=O)N1CCC[C@H]1C(=O)N[C@@H](CCCCN)C(=O)NCC(=O)N[C@@H](C)C(=O)N[C@@H](CCCCN)C(=O)N[C@@H](C)C(=O)N[C@@H](CCCCN)C(=O)N1CCC[C@H]1C(=O)N[C@@H](CCCCN)C(=O)NCC(=O)N[C@@H](C)C(=O)N[C@@H](CCCCN)C(=O)N[C@@H](C)C(=O)N[C@@H](CCCCN)C(=O)N1CCC[C@H]1C(=O)N[C@@H](CCCCN)C(=O)NCC(=O)N[C@@H](C)C(=O)N[C@@H](CCCCN)C(=O)N[C@@H](C)C(=O)N[C@@H](CCCCN)C(=O)N1CCC[C@H]1C(=O)N[C@@H](Cc1cn([C@@H]2O[C@H](CO)[C@H](O)[C@H](O)[C@H]2O)nn1)C(=O)NCC(=O)NCC(=O)NCC(=O)NCC(N)=O; target = ctxB, pentamer (Vibrio cholerae, UniProt P01556); conditions = concentration not given; scale = reference: galactose; measurement = inhibition potency; result = 15 fold
Compound = Cc1cc(C)n(-c2nc(-c3ccccc3)cc(=O)n2CC(=O)Nc2cccc([N+](=O)[O-])c2)n1; target = Spike glycoprotein, HR1/HR2 domains (Severe acute respiratory syndrome coronavirus 2, UniProt P0DTC2); assay = HR1-HR2 interaction, yeast two-hybrid; test system = AH109; conditions = 48 h; measurement = MIC; result = 3.12 µg/mL (≈ 7.03 µM)
Compound = CC[C@H](C)[C@@H]1NC(=O)[C@H](CC(=O)O)NC(=O)[C@H]([C@@H](C)O)NC(=O)[C@@H]2CSSC[C@@H]3NC(=O)[C@H](CC(C)C)NC(=O)[C@H](CC(N)=O)NC(=O)[C@H](CC(C)C)NC(=O)[C@H](CCCNC(=N)N)NC(=O)[C@H](Cc4ccc(O)cc4)NC(=O)[C@H](CC(N)=O)NC(=O)[C@H](CCSC)NC(=O)[C@H](CO)NC(=O)[C@H]([C@@H](C)O)NC(=O)[C@H](CCCNC(=N)N)NC(=O)[C@H](CSSC[C@H](NC(=O)[C@H]([C@@H](C)O)NC(=O)[C@H](CCCCN)NC(=O)[C@H](CCCNC(=N)N)NC3=O)C(=O)NCC(=O)N[C@@H](CO)C(=O)N[C@H](C(=O)O)CSSC[C@H](NC(=O)[C@@H](NC(=O)[C@@H](N)CCCNC(=N)N)[C@@H](C)O)C(=O)N[C@@H](CCCCN)C(=O)N[C@@H](CC(=O)O)C(=O)N[C@@H](CC(C)C)C(=O)N[C@@H]([C@@H](C)CC)C(=O)N3CCC[C@H]3C(=O)N[C@@H](C(C)C)C(=O)N[C@@H](CO)C(=O)N[C@@H](CCC(=O)O)C(=O)N2)NC(=O)[C@H](CCCNC(=N)N)NC1=O; target = KcsA-Shaker chimera channel; assay = two-electrode voltage clamp; test system = Xenopus oocytes; scale = reference: wild type toxin; measurement = fold decrease in affinity; result = ~240 fold
Compound = CC(C)C[C@@H]1NC(=O)[C@H](CCCNC(=N)N)NC(=O)[C@@H]2CCCN2C(=O)[C@@H]2CSSC[C@H](NC(=O)CNC(=O)[C@@H]3CCCN3C(=O)[C@H](CCCCN)NC(=O)[C@H](CC(=O)O)NC(=O)[C@@H](NC(=O)CN)C(C)C)C(=O)N[C@@H](CCCNC(=N)N)C(=O)N[C@@H](Cc3ccc(O)cc3)C(=O)N[C@@H](CC(C)C)C(=O)N[C@@H](Cc3ccccc3)C(=O)NCC(=O)NCC(=O)N[C@H]3CSSC[C@H](NC(=O)CNC1=O)C(=O)N[C@@H](CCCCN)C(=O)NCC(=O)N[C@@H](CCCCN)C(=O)NCC(=O)N[C@@H](Cc1c[nH]cn1)C(=O)N[C@@H](CC(=O)O)C(=O)N[C@@H](Cc1ccc(O)cc1)C(=O)N[C@H](C(=O)N[C@@H](C)C(=O)N[C@@H](Cc1c[nH]c4ccccc14)C(=O)N[C@@H](CC(=O)O)C(=O)NCC(=O)N[C@H](C(=O)N[C@@H](Cc1ccccc1)C(=O)N[C@@H](CO)C(=O)N[C@@H](CC(=O)O)C(=O)O)[C@@H](C)O)CSSC[C@H](NC(=O)[C@H](CC(=O)O)NC(=O)[C@H](CC(=O)O)NC(=O)[C@H](CC(=O)O)NC(=O)[C@H](CO)NC(=O)[C@H](CCCCN)NC3=O)C(=O)N2; target = SCN2A (Homo sapiens, UniProt Q99250); assay = sodium current, automated patch clamp; test system = HEK293; conditions = 1 µM, 50 ms depolarizing pulse; scale = reference: compound over control; measurement = inactivation time constant ratio; result = 1.05 ± 0.08
Compound = CNC(C)C1C(O)CC2(C)C3CCC4C(C)(C)C(NC)CCC45CC35CCC12C (stereo not drawn); target = Spike glycoprotein (Severe acute respiratory syndrome coronavirus 2, UniProt P0DTC2); assay = binding; measurement = koff; result = 0.0291 s⁻¹
Compound = CC[C@H](C)[C@@H]1NC(=O)[C@H](CCCNC(=N)N)NC(=O)[C@H](CO)NC(=O)[C@H](CCC(=O)O)NC(=O)[C@H](CC(=O)O)NC(=O)CNC(=O)CNC(=O)[C@H]([C@@H](C)O)NC(=O)[C@H](Cc2ccccc2)NC(=O)[C@H](CO)NC(=O)[C@H]([C@@H](C)O)NC(=O)[C@H](C)NC(=O)[C@@H]2CSSC[C@@H](C(=O)N[C@@H](Cc3ccc(O)cc3)C(=O)N[C@@H](Cc3ccccc3)C(=O)N[C@H](C(=O)N[C@H](C(=O)NCC(=O)O)[C@@H](C)O)[C@@H](C)O)NC(=O)[C@H]([C@@H](C)O)NC(=O)[C@H](CSSC[C@H](NC(=O)[C@H](CCC(=O)O)NC(=O)[C@H](CO)NC(=O)[C@H](CCCCN)NC(=O)[C@H](Cc3ccc(O)cc3)NC(=O)[C@@H]3CCCN3C(=O)[C@H](Cc3ccccc3)NC(=O)[C@H](CCCCN)NC(=O)[C@H](CCCNC(=N)N)NC(=O)[C@H](CCCCN)NC(=O)[C@H](CCCCN)NC(=O)[C@H](Cc3ccc(O)cc3)NC(=O)[C@@H]3CCCN3C(=O)[C@@H](NC(=O)[C@H](CC(=O)O)NC(=O)[C@H](CCCCN)NC(=O)[C@H](CCCCN)NC(=O)[C@@H](NC(=O)[C@@H](NC(=O)[C@@H](N)CCC(=O)O)C(C)C)[C@@H](C)CC)[C@@H](C)O)C(=O)N[C@@H](CC(C)C)C(=O)N[C@@H](CCCCN)C(=O)N[C@@H](C)C(=O)N2)NC(=O)[C@H](CCCCN)NC(=O)[C@H](Cc2ccccc2)NC(=O)[C@H](Cc2ccccc2)NC(=O)CNC(=O)[C@@H]2CCCN2C(=O)[C@H](CCCCN)NC(=O)CNC(=O)[C@H](CCC(=O)O)NC(=O)[C@H](CCC(N)=O)NC1=O; target = KCNQ4 (Homo sapiens, UniProt P56696, D288A); assay = potassium current, whole-cell patch clamp; conditions = 10 µM; scale = reference: wild type; measurement = loss of inhibition; result = ~97%
Compound = CSCC[C@H](NC(=O)[C@H](CCN)NC(=O)[C@@H](NC(=O)[C@H](Cc1c[nH]c2ccccc12)NC(=O)[C@H](CCCNC(=N)N)NC(=O)[C@@H](N)CCNc1ccc([N+](=O)[O-])cc1[N+](=O)[O-])[C@@H](C)O)C(=O)N[C@@H](CC(C)C)C(N)=O; target = Botulinum neurotoxin type E (Clostridium botulinum, UniProt Q00496); assay = enzyme activity, inhibitor; conditions = concentration not given; measurement = inhibition; result = 0%

For quick reference, copied from above:
Compound = CSCC[C@H](NC(=O)[C@H](CCN)NC(=O)[C@@H](NC(=O)[C@H](Cc1c[nH]c2ccccc12)NC(=O)[C@H](CCCNC(=N)N)NC(=O)[C@@H](N)CCNc1ccc([N+](=O)[O-])cc1[N+](=O)[O-])[C@@H](C)O)C(=O)N[C@@H](CC(C)C)C(N)=O; target = Botulinum neurotoxin type E (Clostridium botulinum, UniProt Q00496); assay = enzyme activity, inhibitor; conditions = concentration not given; measurement = inhibition; result = 0%
